Experimental data from different studies.
Each line is one published result; not all experiments were run side by side. Values joined by “and” are separate records of one study, mostly repeats; a detail may differ. Numbers after ± are the reported error.
CXCR4: C-X-C chemokine receptor type 4 (CXCR4, Homo sapiens, UniProt P61073)
UniProt P61073, sequence (whole entry, looked up): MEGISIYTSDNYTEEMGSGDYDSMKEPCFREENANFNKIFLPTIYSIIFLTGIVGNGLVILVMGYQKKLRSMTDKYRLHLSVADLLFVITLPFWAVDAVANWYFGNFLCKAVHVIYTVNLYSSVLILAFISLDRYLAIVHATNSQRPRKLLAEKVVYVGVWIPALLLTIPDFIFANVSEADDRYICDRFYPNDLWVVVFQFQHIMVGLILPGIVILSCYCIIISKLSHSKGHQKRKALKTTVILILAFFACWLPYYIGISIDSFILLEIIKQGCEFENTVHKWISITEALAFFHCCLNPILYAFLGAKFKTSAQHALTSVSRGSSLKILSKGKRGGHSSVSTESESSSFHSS
FAAH: Fatty-acid amide hydrolase 1 (FAAH, Homo sapiens, UniProt O00519)
UniProt O00519, sequence (whole entry, looked up): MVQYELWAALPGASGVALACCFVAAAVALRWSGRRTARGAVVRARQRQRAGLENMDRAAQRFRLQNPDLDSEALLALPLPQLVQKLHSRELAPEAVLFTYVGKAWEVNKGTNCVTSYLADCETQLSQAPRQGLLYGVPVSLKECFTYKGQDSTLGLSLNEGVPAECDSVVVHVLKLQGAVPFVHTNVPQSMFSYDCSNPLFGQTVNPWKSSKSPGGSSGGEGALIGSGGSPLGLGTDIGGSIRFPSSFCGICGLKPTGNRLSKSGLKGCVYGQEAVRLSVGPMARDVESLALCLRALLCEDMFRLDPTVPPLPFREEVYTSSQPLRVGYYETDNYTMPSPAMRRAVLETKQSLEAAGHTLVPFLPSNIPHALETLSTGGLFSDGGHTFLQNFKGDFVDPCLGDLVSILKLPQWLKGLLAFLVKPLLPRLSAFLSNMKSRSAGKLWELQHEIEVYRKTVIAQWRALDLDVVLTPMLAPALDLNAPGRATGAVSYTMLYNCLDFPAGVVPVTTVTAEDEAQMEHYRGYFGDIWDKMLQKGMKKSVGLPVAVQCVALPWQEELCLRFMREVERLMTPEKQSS
UniProt Q16881, sequence (whole entry, looked up): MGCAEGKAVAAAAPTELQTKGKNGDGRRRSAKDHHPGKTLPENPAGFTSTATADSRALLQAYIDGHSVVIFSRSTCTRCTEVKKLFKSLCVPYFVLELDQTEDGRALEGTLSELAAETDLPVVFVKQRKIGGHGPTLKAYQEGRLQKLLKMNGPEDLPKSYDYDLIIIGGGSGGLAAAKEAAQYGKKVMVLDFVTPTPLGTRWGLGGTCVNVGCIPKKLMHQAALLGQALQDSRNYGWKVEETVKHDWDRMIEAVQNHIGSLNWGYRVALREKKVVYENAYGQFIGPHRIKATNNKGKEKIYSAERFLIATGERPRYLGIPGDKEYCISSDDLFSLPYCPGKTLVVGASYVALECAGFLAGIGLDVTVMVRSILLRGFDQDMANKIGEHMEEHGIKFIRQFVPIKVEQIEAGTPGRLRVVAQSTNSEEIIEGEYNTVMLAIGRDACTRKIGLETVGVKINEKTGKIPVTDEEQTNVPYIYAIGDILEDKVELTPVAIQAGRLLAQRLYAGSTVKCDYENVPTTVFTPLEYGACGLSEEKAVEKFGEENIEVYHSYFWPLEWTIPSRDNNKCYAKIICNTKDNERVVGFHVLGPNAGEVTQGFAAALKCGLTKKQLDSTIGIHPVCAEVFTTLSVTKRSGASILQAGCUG
UniProt P42338, sequence (whole entry, unmodified, looked up): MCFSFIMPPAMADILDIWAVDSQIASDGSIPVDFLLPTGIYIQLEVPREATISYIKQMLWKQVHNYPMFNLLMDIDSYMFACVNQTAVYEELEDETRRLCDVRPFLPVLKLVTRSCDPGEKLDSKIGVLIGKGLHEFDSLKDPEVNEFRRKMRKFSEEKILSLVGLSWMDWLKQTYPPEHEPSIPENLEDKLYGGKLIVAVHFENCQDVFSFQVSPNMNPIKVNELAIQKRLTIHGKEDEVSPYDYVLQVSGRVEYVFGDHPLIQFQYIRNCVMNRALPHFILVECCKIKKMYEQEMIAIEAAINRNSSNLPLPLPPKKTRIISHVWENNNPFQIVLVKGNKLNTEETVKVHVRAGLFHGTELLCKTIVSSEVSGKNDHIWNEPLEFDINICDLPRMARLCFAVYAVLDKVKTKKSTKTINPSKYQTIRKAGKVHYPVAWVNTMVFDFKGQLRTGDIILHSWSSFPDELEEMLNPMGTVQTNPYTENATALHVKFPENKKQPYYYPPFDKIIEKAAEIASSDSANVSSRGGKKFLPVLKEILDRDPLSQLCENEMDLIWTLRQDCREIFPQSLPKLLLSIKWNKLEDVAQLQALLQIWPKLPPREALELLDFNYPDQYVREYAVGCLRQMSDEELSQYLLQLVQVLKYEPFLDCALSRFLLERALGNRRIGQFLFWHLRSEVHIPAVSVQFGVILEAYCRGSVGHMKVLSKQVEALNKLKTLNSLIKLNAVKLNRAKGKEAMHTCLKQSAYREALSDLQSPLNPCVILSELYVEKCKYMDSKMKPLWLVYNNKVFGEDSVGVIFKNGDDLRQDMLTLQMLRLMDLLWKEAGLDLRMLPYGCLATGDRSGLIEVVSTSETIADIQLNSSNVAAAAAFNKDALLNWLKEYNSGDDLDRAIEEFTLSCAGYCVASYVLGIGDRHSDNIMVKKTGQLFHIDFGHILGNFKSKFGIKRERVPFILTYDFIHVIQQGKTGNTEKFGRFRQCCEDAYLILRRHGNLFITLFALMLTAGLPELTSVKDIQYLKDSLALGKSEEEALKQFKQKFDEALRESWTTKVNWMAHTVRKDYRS
UniProt P33527, sequence (whole entry, looked up): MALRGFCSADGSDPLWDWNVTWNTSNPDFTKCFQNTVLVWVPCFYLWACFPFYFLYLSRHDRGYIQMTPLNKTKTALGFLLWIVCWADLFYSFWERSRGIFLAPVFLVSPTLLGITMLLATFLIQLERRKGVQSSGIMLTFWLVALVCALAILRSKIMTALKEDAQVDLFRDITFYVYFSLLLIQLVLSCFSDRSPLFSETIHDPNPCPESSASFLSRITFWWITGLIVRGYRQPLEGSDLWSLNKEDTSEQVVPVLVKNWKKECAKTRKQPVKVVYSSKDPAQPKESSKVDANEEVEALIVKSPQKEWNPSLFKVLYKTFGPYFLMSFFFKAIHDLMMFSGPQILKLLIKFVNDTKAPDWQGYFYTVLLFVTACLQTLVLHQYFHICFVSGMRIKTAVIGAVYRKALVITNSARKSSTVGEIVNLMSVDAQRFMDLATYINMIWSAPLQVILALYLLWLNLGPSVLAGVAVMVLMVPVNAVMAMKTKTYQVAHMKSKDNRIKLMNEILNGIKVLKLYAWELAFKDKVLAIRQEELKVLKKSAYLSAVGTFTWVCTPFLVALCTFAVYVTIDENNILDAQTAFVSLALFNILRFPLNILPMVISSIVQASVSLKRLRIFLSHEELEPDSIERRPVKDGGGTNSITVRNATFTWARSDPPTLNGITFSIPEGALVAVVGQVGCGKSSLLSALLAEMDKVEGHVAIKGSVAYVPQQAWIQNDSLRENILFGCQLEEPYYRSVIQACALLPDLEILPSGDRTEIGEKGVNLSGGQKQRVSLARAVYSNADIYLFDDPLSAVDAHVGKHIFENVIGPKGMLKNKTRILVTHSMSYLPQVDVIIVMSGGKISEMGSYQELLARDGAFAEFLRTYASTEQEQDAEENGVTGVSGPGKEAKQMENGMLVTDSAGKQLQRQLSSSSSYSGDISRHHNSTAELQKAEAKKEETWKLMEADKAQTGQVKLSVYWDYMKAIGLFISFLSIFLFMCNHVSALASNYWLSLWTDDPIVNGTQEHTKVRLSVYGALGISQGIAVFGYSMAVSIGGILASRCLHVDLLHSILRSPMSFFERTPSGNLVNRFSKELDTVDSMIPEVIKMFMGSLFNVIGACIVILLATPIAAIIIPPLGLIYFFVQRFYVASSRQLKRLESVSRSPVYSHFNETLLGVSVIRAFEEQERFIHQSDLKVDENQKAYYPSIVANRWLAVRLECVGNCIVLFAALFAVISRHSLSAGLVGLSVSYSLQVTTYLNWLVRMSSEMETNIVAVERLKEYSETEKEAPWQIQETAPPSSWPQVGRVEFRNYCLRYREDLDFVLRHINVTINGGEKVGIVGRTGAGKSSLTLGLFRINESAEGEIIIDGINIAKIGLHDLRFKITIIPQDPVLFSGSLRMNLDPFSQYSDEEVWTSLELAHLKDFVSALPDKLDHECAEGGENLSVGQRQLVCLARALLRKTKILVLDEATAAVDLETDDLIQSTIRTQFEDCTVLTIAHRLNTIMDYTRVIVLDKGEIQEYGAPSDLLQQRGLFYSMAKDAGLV
UniProt P04798, sequence (whole entry, looked up): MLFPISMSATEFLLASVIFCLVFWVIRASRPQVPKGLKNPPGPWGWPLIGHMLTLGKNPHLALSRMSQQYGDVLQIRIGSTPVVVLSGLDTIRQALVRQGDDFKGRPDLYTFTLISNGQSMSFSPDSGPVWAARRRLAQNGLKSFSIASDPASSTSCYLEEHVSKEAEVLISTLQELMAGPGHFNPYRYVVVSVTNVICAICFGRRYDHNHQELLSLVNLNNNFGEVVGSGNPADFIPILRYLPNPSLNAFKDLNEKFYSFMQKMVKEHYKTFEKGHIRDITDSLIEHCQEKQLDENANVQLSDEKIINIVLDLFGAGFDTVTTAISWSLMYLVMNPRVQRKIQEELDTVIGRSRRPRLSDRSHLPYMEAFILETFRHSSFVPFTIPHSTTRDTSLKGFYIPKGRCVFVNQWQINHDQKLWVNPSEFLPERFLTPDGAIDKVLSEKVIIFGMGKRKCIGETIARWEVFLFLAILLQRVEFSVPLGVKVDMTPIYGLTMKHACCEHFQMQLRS
UniProt Q9UBY5, sequence (whole entry, looked up): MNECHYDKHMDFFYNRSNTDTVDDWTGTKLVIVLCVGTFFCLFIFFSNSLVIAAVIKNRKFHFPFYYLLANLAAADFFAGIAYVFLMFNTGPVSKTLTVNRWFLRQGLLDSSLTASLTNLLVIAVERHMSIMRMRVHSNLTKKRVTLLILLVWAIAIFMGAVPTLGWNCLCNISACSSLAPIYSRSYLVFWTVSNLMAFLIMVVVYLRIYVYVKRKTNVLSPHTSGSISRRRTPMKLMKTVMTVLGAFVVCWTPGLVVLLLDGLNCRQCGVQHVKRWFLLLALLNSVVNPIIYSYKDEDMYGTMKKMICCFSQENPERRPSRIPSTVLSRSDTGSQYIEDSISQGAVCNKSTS

For `COc1cc(CN(CCN)C(=O)c2cccs2)ccc1OCc1ccccc1`, the IC50 was 0.0643 ± 0.0034 µM (Trpm8 (Rattus norvegicus, UniProt Q8R455); ion channel activation, antagonist, aequorin calcium luminescence; CHO cells expressing receptor; together with: menthol).
With `C[C@@H](CNCc1ccccc1)N1C[C@H](CCCNC(=N)N)N(CCc2cccc(F)c2)C1=S` the IC50 was over 1 µM (L-type calcium channel; binding, radioligand displacement).
The IC50 of `COc1ccc(-c2csc(NN=Cc3ccccn3)n2)cc1` is reported as over 10 µM (MAPT (Homo sapiens, UniProt P10636); ligand displacement, radioligand).
For `CCc1ccccc1NC(=O)C(C)Sc1nnc(Cc2c[nH]c3ccccc23)o1` (stereo not shown), the IC50 was 159.8 ± 0.14 µM (alpha-glucosidase; enzyme activity; together with: p-nitrophenyl glucopyranoside).
With `Cc1cc(N)ccc1/N=N/c1cc(S(=O)(=O)O)c2cccc(S(=O)(=O)O)c2c1` the IC50 was over 60 µM (Sentrin-specific protease 2 (Homo sapiens, UniProt Q9HC62); SUMO-1 precursor cleavage, gel-based).
`C[C@H](CO)N1C[C@H](C)[C@H](CN(C)Cc2ccc(C(=O)Nc3ccccc3N)cc2)Oc2ccc(N(C)C)cc2CC1=O` gave an IC50 of 1.3 µM (HDAC3 (Homo sapiens, UniProt O15379); enzyme activity, inhibitor; with preincubation).
`NC(=O)[C@@H]1CC[C@@H]2CN1C(=O)N2OS(=O)(=O)O` has an IC50 of over 49 µM (mrcB (Pseudomonas aeruginosa, UniProt G3XD31); ligand displacement, fluorescence; cell membranes).
The IC50 of `c1nc2c(NCc3cn(CCCNCCCNC4CCCCC4)nn3)nc(N3CCNCC3)nc2[nH]1` is reported as 1.6 µM and ~1.6 µM (CXCR4; β-arrestin-2 recruitment, antagonist, luciferase complementation; MDA-MB-231; 20 min, together with: 200 ng/mL CXCL12-α).
With `c1cc(CNCCCNC2CCCCC2)cc(CNc2nc(N3CCNCC3)nc3[nH]cnc23)c1` the IC50 was 0.0042 µM (CXCR4; ligand displacement, radioligand; cell membranes).
`NC(=O)c1cccc2c1OC[C@@H](CN1CCN(c3ncccn3)CC1)O2` has an IC50 of over 5 µM (PARP1 (Homo sapiens, UniProt P09874)).
With `COc1c(F)cc(OCC2=C(C)C(=O)c3ccccc3C2=O)cc1F` the IC50 was 2 µM (TXNRD1 (Homo sapiens, UniProt Q16881); enzyme activity, inhibitor; pH 7.4, with preincubation).
For `Clc1nc2n[nH]nc2nc1Cl`, the IC50 was 0.74 µM (Genome polyprotein, NS2B-NS3 protease (GP1, West Nile virus, UniProt Q9Q6P4); enzyme activity, inhibitor; pH 8.0, together with: 20 µM Pyr-RTKR-AMC).
`O=c1cc(N2CCOCC2)oc2c(OCc3cccnc3)cccc12` gave an IC50 of 1.16 µM (PIK3CB (Homo sapiens, UniProt P42338, E858H); enzyme activity, inhibitor).
`COc1ccc(Cn2cc(CNC(=O)OCc3cn(Cc4ccccc4OC)nn3)nn2)cc1` gave an IC50 of 0.0307 µM (FAAH; enzyme activity, inhibitor, fluorescence; cell membranes).
For `O=C(O)c1ccc(OCCCc2ccc(OCCCCOC3CCCCC3)cc2)c(C(=O)NC2CCCC(C(=O)O)C2)c1` (stereo not shown), the IC50 was 21 µM (Uracil nucleotide/cysteinyl leukotriene receptor, long isoform (GPR17, Homo sapiens, UniProt Q13304); calcium mobilization, antagonist; 1321N1 stably expressing GPR17; resynthesised compound).
For `O=c1[nH]c2ccccc2n1C1CCN(CCCC(c2ccc(F)cc2)c2ccc(F)cc2)CC1`, the IC50 was 9.7 ± 8.2 µM (ABCC1 (Homo sapiens, UniProt P33527); efflux, inhibitor; SupT1-Vin overexpressing ABCC1; together with: BODIPY FL verapamil 100 nM).
The IC50 of `C#Cc1ccc2ccc(=O)oc2c1` is reported as over 50 µM (Cytochrome P450 1A1 (CYP1A1, Homo sapiens, UniProt P04798); enzyme activity, inhibitor, fluorescence; 6 min, pH 7.6).
The IC50 of `O=C(Nc1cc(F)c(F)c(F)c1Br)c1cc(S(=O)(=O)N2CCOCC2)c(Cl)cc1Cl` is reported as over 100 µM (LPAR3 (Homo sapiens, UniProt Q9UBY5); Ca2+ mobilization, antagonist; RH7777; together with: LPA at EC50).
With `O=C(NCc1ccccc1)c1ccc(O)cc1` the IC50 was 8.6 µM (FAAH; enzyme activity, inhibitor, fluorescence; with preincubation).

Repeated from above:
`COc1ccc(Cn2cc(CNC(=O)OCc3cn(Cc4ccccc4OC)nn3)nn2)cc1` gave an IC50 of 0.0307 µM (FAAH; enzyme activity, inhibitor, fluorescence; cell membranes).
For `O=c1[nH]c2ccccc2n1C1CCN(CCCC(c2ccc(F)cc2)c2ccc(F)cc2)CC1`, the IC50 was 9.7 ± 8.2 µM (ABCC1 (Homo sapiens, UniProt P33527); efflux, inhibitor; SupT1-Vin overexpressing ABCC1; together with: BODIPY FL verapamil 100 nM).
